Assay results collected from several papers.
Parts stem from different laboratories: compare values within a part only.

Sample 1 — technique: universal PBM; molecule type: double-stranded DNA, one strand shown; medium: in vitro; tested at: 600 nM; direction: higher = stronger binding
Target: Sal-like protein 4, full length isoform A (SALL4, Homo sapiens, UniProt Q9UJQ4, residues 1-1053)
Sequence of UniProt Q9UJQ4 (whole entry, looked up): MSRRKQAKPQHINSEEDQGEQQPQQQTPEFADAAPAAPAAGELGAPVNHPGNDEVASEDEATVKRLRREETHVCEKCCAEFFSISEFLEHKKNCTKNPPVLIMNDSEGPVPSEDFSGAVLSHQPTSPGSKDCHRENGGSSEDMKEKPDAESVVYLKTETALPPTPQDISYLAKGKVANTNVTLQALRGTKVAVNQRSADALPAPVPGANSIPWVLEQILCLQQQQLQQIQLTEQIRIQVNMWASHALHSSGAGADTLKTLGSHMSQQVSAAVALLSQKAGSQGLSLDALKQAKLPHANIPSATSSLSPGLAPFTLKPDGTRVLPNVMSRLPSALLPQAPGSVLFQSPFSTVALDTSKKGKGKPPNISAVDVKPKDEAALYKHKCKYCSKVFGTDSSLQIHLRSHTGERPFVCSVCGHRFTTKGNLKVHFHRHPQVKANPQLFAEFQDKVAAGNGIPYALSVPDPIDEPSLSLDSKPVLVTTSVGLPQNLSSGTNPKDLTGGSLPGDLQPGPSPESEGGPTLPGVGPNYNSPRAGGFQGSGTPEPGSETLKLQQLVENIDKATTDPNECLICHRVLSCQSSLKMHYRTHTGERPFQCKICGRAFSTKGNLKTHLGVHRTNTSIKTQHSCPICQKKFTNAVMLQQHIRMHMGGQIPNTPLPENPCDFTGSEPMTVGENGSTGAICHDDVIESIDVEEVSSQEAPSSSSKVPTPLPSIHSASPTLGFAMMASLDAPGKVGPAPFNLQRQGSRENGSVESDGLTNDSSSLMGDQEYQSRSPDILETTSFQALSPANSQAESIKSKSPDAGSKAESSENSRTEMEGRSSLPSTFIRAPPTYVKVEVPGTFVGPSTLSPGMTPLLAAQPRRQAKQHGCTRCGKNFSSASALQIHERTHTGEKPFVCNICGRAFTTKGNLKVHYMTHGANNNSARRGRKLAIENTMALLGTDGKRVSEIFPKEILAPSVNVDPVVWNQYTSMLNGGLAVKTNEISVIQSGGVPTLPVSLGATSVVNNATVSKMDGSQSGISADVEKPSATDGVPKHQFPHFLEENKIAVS
Setting: 8-mer, flanks averaged, mean of replicates
Strand | E-score
ACAGGTTA | -0.00235
AGCGGAAA | -0.0183
CATCAATC | 0.195
ACTTACGC | 0.107
TATGGGAA | 0.15
AATCCTCT | -0.0335
TAATTAGA | 0.291
ATAATCAC | 0.271
ACACTTTC | 0.0288
CCTGTCAC | -0.22
ATAAGAAT | 0.309
ACTAAGTC | 0.0972
CCACGCTC | -0.351
ATGCTAGG | 0.0761
ACCCGTGC | -0.319
TCGGGAAA | -0.0237
CACCGAAG | -0.0626
GGGAAGCA | -0.0823
AAAGTATC | 0.182
GATGGTGC | -0.263
CGGCAGCA | -0.188
TACTTATA | 0.329
TAGGATCA | 0.0278
ATCACATG | 0.137
AGCTAGCA | -0.18

Sample 2 — technique: RNA Bind-n-Seq; molecule type: RNA; medium: in vitro; tested at: not given; baseline: input RNA pool; direction: higher = stronger binding
Target: RING finger protein unkempt homolog, zinc fingers 1-6, GST-SBP tag (UNK, Homo sapiens, UniProt Q9C0B0, residues 30-357)
Setting: RNA with constant flanks, human-mouse chimeric sites, ends assumed
All sequences stand within: GGGAGUUCUACAGUCCGACGAUC … CAACAGAGGAUUGAGCAUCA
Residues (chain): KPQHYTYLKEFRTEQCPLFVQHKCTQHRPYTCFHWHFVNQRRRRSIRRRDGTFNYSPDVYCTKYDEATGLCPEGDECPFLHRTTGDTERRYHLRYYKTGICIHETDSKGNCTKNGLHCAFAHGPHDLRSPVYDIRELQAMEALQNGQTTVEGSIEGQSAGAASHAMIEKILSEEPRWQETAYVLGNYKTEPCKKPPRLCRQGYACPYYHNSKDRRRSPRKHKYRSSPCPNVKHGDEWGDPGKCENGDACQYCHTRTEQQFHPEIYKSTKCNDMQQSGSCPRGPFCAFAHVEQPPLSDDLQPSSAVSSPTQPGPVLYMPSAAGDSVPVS
Strand | bound/input enrichment
GAAACAUUUAAAUUUAAAGAAGCUGUUGUUCUAGGAAGUACGGACUUUCUAGAAGAUGAUAUAGAAAAAAUUGUAGAAGAACUGGGGAAAGAGUAUAAGGGCAACGCCUACCAUCUGAUG | 1.83 ratio
AUUGUUGAAGCGAAUCCACUUUUAGAAGCAUUUGGAAAUGCAAAGACUGUUCGCAACAAUAAUAGCAGUCGAUUUGGAAAAUUUGUAGAAAUUCAUUUUAAUGAAAAGAGCUCAGUUGUU | 0.683 ratio
UGUAGUUUCUUGAUUUAUCAUUUUUCUCUUUUCUUUCAGAUCGUCAGGAAAAGCCUAAAGAUUAGGUUGUAAGAAAAACAGAAGCCAGCCAUGUUUCACCUGUGUUACAGGUAUUUCGUC | 0.605 ratio
GAUGAUAAUCACACAAAUGUGGCACUUUUAUGUGACCAGCCUUGGGAUUCUUUUCCUGAUUAAUAUUCUCCCUGGAACCACUGGUCAAGGGGAAUCAAGACGACAAGAACCCGGGGACUU | 0.0971 ratio
UGUAGUUUCUUGAUUUAUCAUUUUUCUCUUUUCUUUCUUUCCUUUAGGAAAAGCCUAAAGAUUAGGUUGUAAGAAAAGAAAAUAGAAGCCAUGUUUCACCUGUGUUACAGGUAUUUCGUC | 0.448 ratio
CGCAGAAGGUUAAAGGGUGAGAGUGGGGUGGAAGACUGUGUCAUGGCUCUGGAGACACUGUUCAGUGUCCUGCUUUCUCUGUGCAGACUGAUGGCCCCUUACACGCCUUUUCUCACUGAG | 0.0692 ratio
GGACCAUAAUCAUGGAGGACAUAAUGCAGCUCCCCAAAGCGCGCGUCAACGCCAGCAUGUUACCACAGUAUAUCGACAAGCCUGUCUGCUUCGUGGGGAAGCUGGAAAAGAUUCAUCCCA | 0.164 ratio
ACUCUUGACUCUUUCCAUCCUCUUCCUUUCCCUCUUGAUAUUCAAGGCCAUGAAUCCCAAAAUAACAGUCUUAGUGGCUAGCACCCAAACAGAGGUGGGUGCCAUCCAAACUGACAACUC | 0.534 ratio
CAGUCCCCGUGUCCCAGUGCAGGACGAUGUGAACAAAAACUCAAAGCGGCCCUUUCUUUGUAGUUCUUGAUUCUCGAAAUGUGCUAUUAUUGUUUGUAAAAAAGGAAUUUUUUUUAAAGA | 0.336 ratio
GGAAUUGCUGAUUCAAGUAAGUUUGAGUAUCACAAUGUUAGCUUUCUAAUUCCAUAAAGAUAGUUUUUUUUUACAGUUUAUAAUCUGACAUCACCCCAGCGCCAUUUGUAAAGAGCAACU | 6.58 ratio
CACUCGAGGGCUGCCGUCCGUUCUCACUCCCUGGGCUGCGGAAAGCCAGAAGAUUUUAUCUAGCUUAUACAAGGCUGCUGGUGUUCCCUCUUUUUUUCCACGAGGGUGUUUUUGGCUGCA | 0.323 ratio

Sample 3 — technique: protein-binding microarray; molecule type: double-stranded DNA, one strand shown; medium: in vitro; tested at: not given; direction: higher = stronger binding
Target: Myc proto-oncogene protein, bHLH-zipper, MAX partner unstated (MYC, Homo sapiens, UniProt P01106, residues 368-449)
Sequence of UniProt P01106 (368-449, looked up): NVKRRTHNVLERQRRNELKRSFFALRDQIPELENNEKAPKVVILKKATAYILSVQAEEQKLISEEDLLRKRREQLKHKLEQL
Setting: k-mer, scored over probes, only values ≥0.25
Strand | E-score
CATGACCC | 0.304
ATGCTGCA | 0.267
ACAACGCA | 0.259
CGTGATGC | 0.281
GCGTGCCC | 0.401
CACGCAGC | 0.368
CACACCTG | 0.266
CCCCGCGC | 0.265
ACACCACA | 0.261
AACGAGGG | 0.26
CCCACGCA | 0.306
ACATGTTA | 0.316
CGTGGTGA | 0.372
GCCGCCAC | 0.277
ATACCGCG | 0.295
CCGGCCAC | 0.266
ATACACGC | 0.406
GACACGCA | 0.326
ACATGCAG | 0.307
CACGTTCC | 0.353
ACAAGCAT | 0.26
GTGGACCA | 0.293
GCCACCCA | 0.252
CATGCTGG | 0.401
ACGCCTCG | 0.301

Sample 4 — technique: protein binding microarray; molecule type: double-stranded DNA, one strand shown; medium: in vitro; tested at: not given; baseline: not given; direction: higher = stronger binding
Target: Histone acetyltransferase KAT6A, winged helix 2, GST fusion (KAT6A, Homo sapiens, UniProt Q92794, residues 85-181)
Setting: 8-mer, flanks averaged, mean of 2 arrays, mostly near background
Construct (chain): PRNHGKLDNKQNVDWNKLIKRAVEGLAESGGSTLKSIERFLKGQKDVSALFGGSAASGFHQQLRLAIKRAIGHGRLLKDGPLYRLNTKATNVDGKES
Strand | E-score
CCACTCCG | 0.0103
TCTTCGAA | 0.0206
AGTCTCGG | -0.201
CGGTAGCA | 0.114
ACTCACGC | -0.000365
AGAGCAGA | 0.0832
AACAAGCT | 0.033
CGACATAC | -0.115
GGTGGGGA | 0.181
AAGAGCTC | -0.172
CCTCTCGC | -0.0931
CCGCAAGG | 0.123
CAACGATA | 0.095
AGTAAAAA | 0.0297
ACCAAAAG | 0.0478
CCGATTAA | 0.0619
CCAAATAG | -0.0383

Sample 5 — technique: competition protein-binding microarray; molecule type: double-stranded DNA, one strand shown; medium: in vitro; tested at: 2 µM; with: Cbf1 competitor, 0.05 µM; direction: higher = stronger binding; all sequences stand within: … GTCTTGATTCGCTTGACGCTGCTG
Target: Phosphate system positive regulatory protein PHO4, full length, GST-tagged (PHO4, Saccharomyces cerevisiae, UniProt P07270, residues 1-312)
Setting: whole 60-bp probe, lowest competitor level
Residues (chain): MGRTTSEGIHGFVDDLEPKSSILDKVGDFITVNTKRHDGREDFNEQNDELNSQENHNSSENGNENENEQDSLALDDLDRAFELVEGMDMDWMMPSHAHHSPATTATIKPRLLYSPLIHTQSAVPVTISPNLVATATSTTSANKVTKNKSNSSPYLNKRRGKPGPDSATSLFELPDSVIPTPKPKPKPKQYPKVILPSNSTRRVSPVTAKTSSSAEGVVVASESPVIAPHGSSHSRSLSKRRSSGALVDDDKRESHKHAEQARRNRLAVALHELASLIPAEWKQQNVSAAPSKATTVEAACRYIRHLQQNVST
Strand | fluorescence intensity
TTGAAAGGCATCGGCCACGTCGTCCCCTTCTCTAAC | 5520 a.u.
CTAACGAAGGTTTGTAGGGTGGGTGACAAGCCAAGT | 3770 a.u.
GCAAGTCAAGAGGTCTCCGTGATGGCTAGCCACCTC | 2840 a.u.
TGTTTCTTCTGAAAGCACGTGTGAAAAGTTTTCCTG | 19900 a.u.
CCATCAATACTTTTATTCATGACAAGATGCATAGGT | 5590 a.u.
TGTTTCACCTAAGCAAACGTGTGGACCACAACCAAA | 9670 a.u.
AAAGCGGTAATTTGATTCGTGGGTGCAGATATCTAT | 6280 a.u.
AAGGGCCCTTGCCTACACGTGAATATGTCTATTTTA | 11700 a.u.
TGCGCAACAACTTGTGGAGTGGGTGTATGTCTAGAA | 5060 a.u.
GTCTTGTCTCATTGTCACCTTACTTTCCCCACTTCA | 4120 a.u.
TTGCGCTTGCCGTAGCACATGACAAACGGACTATTG | 8330 a.u.
CGGGGTTAAGTTTGTCACATGACTTGCTTGCAGCAG | 6080 a.u.
CATTCTGTGAACCATCACGTGGACCAATTATATTAC | 18000 a.u.
ACATTATGCATAGCTTACCTGATCCAAAAGTATGTA | 3860 a.u.
AGATACAAAGTGTCCCACGGGCCAGTTTTGGCTTTA | 8430 a.u.
AAAGCGGTAATTTGGTCAGTGGGTGCAGATATCTAT | 4390 a.u.
AAGAGACAAAAGGAACACGTGAAATAAGAAAGAAAA | 14200 a.u.
TGCGCAACAACTTGGGTTGTGGGTGTATGTCTAGAA | 5180 a.u.
AGTTCATCGATGTAGCATGTGTACGCATTTCTAGAT | 10800 a.u.
TCTCTTCTTCATCACCACGATGTATCTTTTGTTTTG | 11200 a.u.
AGTAAAAGAGAAAAACACGTGTGGAGAACTTTTCAT | 20700 a.u.
CGGGGTTAAGTTTGGCTTGTGGGTGGCTTGCAGCAG | 5320 a.u.
CTAACGAAGGTTTGGGTAGTGGGTGACAAGCCAAGT | 4060 a.u.
CGTCCTAGTGATTGCCTTGTGGGTGCCATGAGGAAG | 8740 a.u.
CGGGGTTAAGTTTGCTTTGTGGGTGGCTTGCAGCAG | 4560 a.u.

Some of these lines once more (sample 5):
Strand | fluorescence intensity
ACATTATGCATAGCTTACCTGATCCAAAAGTATGTA | 3860 a.u.
AGATACAAAGTGTCCCACGGGCCAGTTTTGGCTTTA | 8430 a.u.
AAAGCGGTAATTTGGTCAGTGGGTGCAGATATCTAT | 4390 a.u.
AAGAGACAAAAGGAACACGTGAAATAAGAAAGAAAA | 14200 a.u.
TGCGCAACAACTTGGGTTGTGGGTGTATGTCTAGAA | 5180 a.u.
AGTTCATCGATGTAGCATGTGTACGCATTTCTAGAT | 10800 a.u.
TCTCTTCTTCATCACCACGATGTATCTTTTGTTTTG | 11200 a.u.
